Values quoted from earlier work, collected from citations in different studies.
Lines come from different studies, so protocols differ. pEC50, pIC50: −log10 of the molar value. ≈ marks a conversion by molar mass, not a printed value.

COc1ccc(Nc2nc(Nc3ccc(OCC[18F])cc3)ncc2Br)cc1: “tumour to tissue ratio” 2.51 (S180 tumour-bearing mice; intravenous, 15 min; reference: tumour over muscle).
CN1CCN(S(=O)(=O)c2ccc(-c3ccc4ncnc(Nc5ccc(F)cc5)c4c3)cc2)CC1 has a pEC50 of 5.70 (Trypanosoma brucei; parasite growth).
For O=C(c1cccc(Nc2nc3ccccc3n3nnnc23)c1)N1CCc2ccccc2C1, the pIC50 was 5.46 (Plasmodium; parasite growth).
With CCCCCOc1ccc(-c2ccc3ncnc(Nc4ccc(OCc5cccc(F)c5)c(Cl)c4)c3c2)c(F)c1F the pEC50 was 5.18 (Trypanosoma brucei; parasite growth).
Under “relative fluorescence index”, CCOC(=O)[C@H]1c2ccc3ccccc3c2O[C@@H]2c3ccsc3CCN21 is recorded as 0.33 (Staphylococcus aureus; efflux pump inhibition; ATCC 25923; 50 µM; reference: untreated cells).
The pEC50 of O=S(=O)(c1cccc(-c2ccc3ncnc(Nc4ccc(OCc5cccc(F)c5)c(Cl)c4)c3c2)c1)N1CCCC1 is reported as 6.60 (Trypanosoma brucei; parasite growth).
c1ccc2c(c1)CCNC2c1c[nH]c2ncccc12 (stereo not drawn) — result for “relative fluorescence index”: 0.52 (Escherichia coli; efflux pump inhibition; AG100A AcrAB-TolC deleted; 50 µM; reference: untreated cells).
For NS(=O)(=O)c1nnc(NC(=O)C2CCCCC2)s1, the MIC was 1.72 µM (≈ 0.499 µg/mL) (Enterococcus faecalis; NR-31972).
CN1CCN(Cc2cccc(CC(O)Cn3c4ccccc4c4ccccc43)c2)CC1 (stereo not drawn) gave a pIC50 of 6.00 (Plasmodium; parasite growth).
For O=C(Cc1ccc(Br)cc1)N[C@H]1CCOC1=O, the inhibition was 40% (Pseudomonas aeruginosa; biofilm formation; PAO1; 50 µM).
Under “relative fluorescence index”, CCOC(=O)[C@H]1c2c(ccc3ccccc23)O[C@@H]2c3ccccc3CCN21 is recorded as 0.13 (Staphylococcus aureus; efflux pump inhibition; ATCC 25923; 100 µM; reference: untreated cells).
For CCN(CC)CC#CCNc1ccnc2cc(Cl)ccc12, the pIC50 was 7.34 (Plasmodium falciparum; parasite growth, SYBR Green I; 3D7; average of experiments).
